Measured values of several laboratories.
Protocols differ between the studies behind these lines. Values joined by “and” are separate records of one study, mostly repeats; a detail may differ. Numbers after ± are the reported error.
KCNJ13 M125R: Inward rectifier potassium channel 13 (KCNJ13, Homo sapiens, UniProt O60928, M125R)
MAL12: Alpha-glucosidase MAL12 (MAL12, Saccharomyces cerevisiae S288c, UniProt P53341)
KCNK18: Potassium channel subfamily K member 18 (KCNK18, Homo sapiens, UniProt Q7Z418)
Inward rectifier potassium channel 4: Inward rectifier potassium channel 4 (Homo sapiens, UniProt P48050)
Cyp2b1: Cytochrome P450 2B1 (Cyp2b1, Rattus norvegicus, UniProt P00176)
Urease: Urease (Canavalia ensiformis, UniProt P07374)
Kir1 channel protein: Kir1 channel protein (Aedes aegypti, UniProt L0EQS9)

Compound = Nc1ncnc2c1ncn2[C@@H]1O[C@H](CSCC[C@H](N)C(=O)O)[C@@H](O)[C@H]1O; target = Histone-lysine N-methyltransferase 2A, pentameric core complex (KMT2A, Homo sapiens, UniProt Q03164); assay = FL-NAH displacement, fluorescence polarization; conditions = 30 min, pentameric complex, added: 50 nM FL-NAH; IC50 = 0.2 ± 0.02 µM
Compound = O=c1cc(-c2cccc3ccccc23)[nH][nH]1; target = Alkaline phosphatase, tissue-nonspecific isozyme (ALPL, Homo sapiens, UniProt P05186); assay = enzyme activity, inhibitor, absorbance; IC50 = 73.6 µM
Compound = CN1CCc2c(c3ccccc3n2Cc2ccc(C(=O)NO)cc2)C1; target = HDAC (Lucilia cuprina egg nuclear extract); assay = enzyme activity, inhibitor, fluorometric; IC50 = 71 µM
Compound = C[C@@H]1O[C@H](CNS(=O)(=O)c2ccc(C#Cc3ccccc3)s2)[C@@H](O)[C@H](O)[C@@H]1O; target = fucose-binding lectin LecB (Pseudomonas aeruginosa, UniProt A0A0H2ZE85); IC50 = 0.14 µM
Compound = N=c1n(Cc2ccccc2)c2ccccc2n1CC(O)COc1ccc(Cc2ccccc2)cc1 (stereo not drawn); target = KCNJ13 M125R; assay = ion flux, inhibitor; IC50 = 6.07 µM
Compound = COc1cc2oc(-c3ccc(O)cc3O)c(CC=C(C)C)c(=O)c2c(O)c1/C=C/C(C)C; target = Sialidase A (nanA, Streptococcus pneumoniae, UniProt P62575); assay = neuraminidase activity, inhibitor, chemiluminescence; system = Streptococcus pneumoniae, total protein of strains; IC50 = 0.49 µM
Compound = Cn1c(=N)n(CC(O)COc2ccc(C(F)(F)F)cc2)c2ccccc21 (stereo not drawn); target = KCNJ13 M125R; assay = ion flux, inhibitor; IC50 = 5.2 µM
Compound = CCc1ccc(NC(=O)Cn2cc(CSc3nc4ccccc4cc3/C=N/NC(N)=S)nn2)cc1; target = MAL12; assay = enzyme activity, inhibitor; IC50 = ≤ 70.3 µM
Compound = COc1cc2c(cc1OC)-c1c/c(=N\c3c(C)cc(C)cc3C)n(C)c(=O)n1CC2; target = KCNK18; assay = ion flux, inhibitor; IC50 = 8.42 µM
Compound = Cc1nc2ccccc2n1Cc1ccc(C(=O)NO)cc1; target = Histone deacetylase 11 (HDAC11, Homo sapiens, UniProt Q96DB2); conditions = concentration not given; IC50 = 9.81 µM
Compound = N=c1n(Cc2ccccc2)c2ccccc2n1CC(O)COc1ccc(Cl)cc1 (stereo not drawn); target = Inward rectifier potassium channel 4; assay = ion flux, inhibitor, fluorescence; IC50 = 4.2 µM
Compound = Clc1ccc(COC(Cn2ccnc2)c2ccc(Cl)cc2Cl)c(Cl)c1 (stereo not drawn); target = 7-alpha-hydroxycholest-4-en-3-one 12-alpha-hydroxylase (Homo sapiens, UniProt Q9UNU6); assay = enzyme activity, inhibitor; conditions = 2 min, added: 7α-hydroxycholest-4-en-3-one 0.5 µM (Km); IC50 = 0.46 µM
Compound = O=C(OC(C(F)(F)F)C(F)(F)F)N1CCN(C(c2ccc(Cl)cc2)c2ccc(Cl)cc2)CC1; target = Monoacylglycerol lipase-like protein (Plasmodium falciparum, UniProt Q8IJ22); assay = enzyme activity, inhibitor; conditions = added: 4-methylumbelliferyl octanoate 10 µM; IC50 = 0.0026 µM
Compound = C#CCOc1cccc2oc(-c3ccccc3)cc(=O)c12; target = Cyp2b1; assay = enzyme activity, inhibitor; system = supersomes; conditions = added: pentoxyresorufin 5 µM; IC50 = > 10 µM
Compound = COc1ccc(Cl)cc1C(=O)NCCc1ccc(S(=O)(=O)NC(=O)NC2CCCCC2)cc1; target = Na+/K+-ATPase; assay = ouabain-sensitive ATPase activity, inhibitor; system = HIT cell membranes; conditions = 37 °C, partial inhibition, added: ATP 3 mM; IC50 = 0.0175 µM
Compound = C/C=C1\NC(=O)[C@H]2CSSCC/C=C/[C@H](CC(=O)N[C@H](C(C)C)C(=O)N2)OC(=O)[C@H](C(C)C)NC1=O; target = HDAC (Lucilia cuprina egg nuclear extract); assay = enzyme activity, inhibitor, fluorometric; IC50 = 1.4e-05 µM
Compound = COc1ccccc1OCC(O)Cn1c(=N)n(Cc2ccccc2)c2ccccc21 (stereo not drawn); target = KCNJ13 M125R; assay = ion flux, inhibitor; IC50 = 8.5 µM
Compound = CN(C)c1cc2c(Nc3ccc4c(cnn4Cc4ccccc4)c3)ncnc2cn1; target = KCNK18; assay = ion flux, inhibitor; IC50 = 26.6 µM
Compound = COC(=O)C1=C(C)NC(C)=C([N+](=O)[O-])[C@H]1c1ccccc1C(F)(F)F; target = Voltage-dependent T-type calcium channel subunit alpha-1H (CACNA1H, Homo sapiens, UniProt O95180); assay = calcium current, blocker, automated patch clamp; conditions = tonic block, holding -90 mV; IC50 = 11.5 ± 0.6 µM
Compound = Cc1ccc2nc(C(C)C)n(-c3ccc4[nH]ncc4c3)c2n1; target = GRIA1/CACNG8 (Homo sapiens, UniProt P42261+Q8WXS5); assay = calcium influx, antagonist, FLIPR; system = HEK293 expressing GluA1o; conditions = added: glutamate 100 µM; IC50 = 0.0113 µM
Compound = Cc1ccc(OCC(O)Cn2c(=N)n(Cc3ccccc3)c3ccccc32)cc1 (stereo not drawn); target = KCNJ13 M125R; assay = ion flux, inhibitor; IC50 = 4.77 µM and 4.9 µM
Compound = COc1ccc(Cn2c(NCCNC(=N)NC(=O)c3ccc(F)cc3)nc(=O)n(Cc3ccc(F)cc3)c2=O)cc1; target = Prokineticin receptor 1 (PROKR1, Homo sapiens, UniProt Q8TCW9); assay = ligand displacement, radioligand; IC50 = 0.11 µM
Compound = O=C(NO)c1ccc(Cn2c3c(c4cc(Br)ccc42)SC(c2ccccc2)C3)s1 (stereo not drawn); target = Histone deacetylase 8 (Schistosoma mansoni, UniProt A5H660); assay = enzyme activity, inhibitor, Fluor-de-Lys; conditions = added: Fluor-de-Lys substrate 50 µM; IC50 = 4.22 ± 1.58 µM
Compound = CN1CCN(CCC(=O)Nc2ccc3c(c2)Sc2cccc(-c4cc(=O)cc(N5CCOCC5)o4)c2S3)CC1; target = Serine/threonine-protein kinase mTOR (MTOR, Homo sapiens, UniProt P42345); assay = enzyme activity, inhibitor; IC50 = 14 µM
Compound = COC(=O)C1=C(C)NC(C)=C(C(=O)OCCN(C)Cc2ccccc2)C1c1cccc([N+](=O)[O-])c1 (stereo not drawn); target = Multidrug resistance-associated protein 1 (ABCC1, Homo sapiens, UniProt P33527); assay = efflux, inhibitor; system = SupT1-Vin overexpressing ABCC1; conditions = added: SYTO 13 100 nM; IC50 = 1.4 ± 1.1 µM
Compound = Cc1cc(OCC(=O)N/N=C/c2cccc(OCc3cn(Cc4ccccc4)nn3)c2)c2c(C)cc(=O)oc2c1; target = Urease; assay = enzyme activity, inhibitor; IC50 = 7.93 ± 0.98 µM
Compound = O=[N+]([O-])c1ccc(N2CCN(S(=O)(=O)c3ccc(F)cc3)CC2)cc1F; target = Kir1 channel protein; assay = ion flux, inhibitor, fluorescence; IC50 = 2.43 µM
Compound = O=[N+]([O-])c1ccc(NC(=S)N2CCc3ccccc3C2)cc1; target = Urease; assay = enzyme activity, inhibitor, absorbance; IC50 = 50.4 µM
Compound = N#CC1=C(N)Oc2c(c(=O)[nH]c3ccccc23)C1c1ccc(OCc2cn(Cc3ccc(Br)cc3)nn2)cc1 (stereo not drawn); target = MAL12; assay = enzyme activity; IC50 = 4.48 ± 0.03 µM
Compound = NC(=O)c1cnc(NCCc2ccc(O)c(Cl)c2)nc1NCc1ccccc1; target = Serine-protein kinase ATM (ATM, Homo sapiens, UniProt Q13315); assay = kinase activity reporter, inhibitor, SPARK reporter imaging; system = HEK293; conditions = 1 h, added: etoposide 3 µM; IC50 = 0.325 µM
Compound = O=C1c2c(O)cc(O)cc2O[C@H](c2cc(O)c(O)c(O)c2)[C@H]1O; target = GABAA receptor benzodiazepine site, rat; assay = binding, radioligand displacement; system = cortex membranes; conditions = added: [3H]flunitrazepam 1 nM; IC50 = 4.36 µM
Compound = FC(F)(F)c1ccc(NC(=S)N2CCc3ccccc3C2)cc1; target = Urease; assay = enzyme activity, inhibitor, absorbance; IC50 = 18.5 µM
Compound = [Cl-].[Cl-].[Zn+2]; target = Voltage-gated hydrogen channel 1 (HVCN1, Homo sapiens, UniProt Q96D96, D130H/H193A); assay = proton current, inhibitor, whole-cell voltage clamp; system = human cells; conditions = pH 6.5, test pulse 120 mV; IC50 = 3.7 µM
Compound = CC(Nc1cc(N2CCN(S(=O)(=O)c3ccc(F)cc3)CC2)ccc1[N+](=O)[O-])c1ncco1 (stereo not drawn); target = Kir1 channel protein; assay = ion flux, inhibitor, fluorescence; IC50 = 0.905 µM
Compound = CC(C)C[C@H](NC(=O)[C@H](CC(N)=O)NC(=O)[C@H](CC(C)C)NC(=O)[C@@H](NC(=O)[C@@H](NC(=O)[C@@H]1CCCN1C(=O)[C@H](CCCNC(=N)N)NC(=O)[C@H](CCCCN)NC(=O)[C@@H]1CCCN1C(=O)[C@H](CCCNC(=N)N)NC(=O)[C@H](CCCNC(=N)N)NC(=O)[C@H](CCCNC(=N)N)NC(=O)[C@H](CCCNC(=N)N)NC(=O)[C@H](CCC(N)=O)NC(=O)[C@H](CCCNC(=N)N)NC(=O)[C@H](CCCNC(=N)N)NC(=O)[C@H](CCCCN)NC(=O)[C@H](CCCCN)NC(=O)[C@H](CCCNC(=N)N)NC(=O)CNC(=O)[C@@H](N)Cc1ccc(O)cc1)[C@@H](C)O)[C@@H](C)O)C(=O)N[C@@H](Cc1ccccc1)C(N)=O; target = Mitogen-activated protein kinase 8 (MAPK8, Homo sapiens, UniProt P45983); assay = kinase activity, inhibitor; conditions = 60 min, pH 7.4, 30 °C, added: 1 µM c-Jun substrate, 1 µM ATP; IC50 = 0.034 ± 0.008 µM
Compound = COc1c(O)cc(-c2oc3cc(O)cc(O)c3c(=O)c2O)cc1O; target = α-glucosidase (Saccharomyces cerevisiae); assay = inhibitor; conditions = added: pNPG; IC50 = 205 ± 5.6 µM
Compound = COc1cc(/C=N/NC(=O)COc2cc(C)cc3oc(=O)cc(C)c23)ccc1OCc1cn(Cc2ccc(C)cc2)nn1; target = Urease; assay = enzyme activity, inhibitor; IC50 = 8.12 ± 1.12 µM
Compound = O=C(OC[C@H]1O[C@@H](OC(=O)c2cc(O)c(O)c(O)c2)[C@H](OC(=O)c2cc(O)c(O)c(O)c2)[C@@H](OC(=O)c2cc(O)c(O)c(O)c2)[C@@H]1OC(=O)c1cc(O)c(O)c(O)c1)c1cc(O)c(O)c(O)c1; target = DNA oxidative demethylase ALKBH2 (ALKBH2, Homo sapiens, UniProt Q6NS38); assay = 3-methylcytosine repair, inhibitor, HPLC; conditions = 1 h, 37 °C, added: ssDNA 16mer 5 µM; IC50 = 18.9 µM
Compound = CC(C)c1ccc(OCC(O)Cn2c(=N)n(Cc3ccccc3)c3ccccc32)cc1 (stereo not drawn); target = Inward rectifier potassium channel 4; assay = ion flux, inhibitor, fluorescence; IC50 = 5.03 µM
Compound = CC12CC3CC(C)(C1)CC(N)(C3)C2; target = Glutamate receptor 2 (Gria2, Rattus norvegicus, UniProt P19491); assay = ion current, inhibitor, whole-cell patch-clamp; conditions = holding potential -100 mV, added: glutamate 10 mM, cyclothiazide 100 µM; IC50 = 4.1 ± 1.3 µM
Compound = C#CCOc1ccccc1-c1cc(=O)c2ccccc2o1; target = Cyp2b1; assay = enzyme activity, inhibitor; system = supersomes; conditions = added: pentoxyresorufin 5 µM; IC50 = 9.66 µM
Compound = COc1ccc([C@H](CC(=O)O)N2CCN(CCCc3ccc4c(n3)NCCC4)C2=O)cn1; target = Integrin alpha-V/beta-1 (Homo sapiens, UniProt P05556+P06756); assay = fibronectin binding, inhibitor, ELISA; IC50 = 0.0016 ± 0.0007 µM
